Experimental data pooled from the literature.
Protocols differ between the studies behind these lines. ± marks the error that the study gave.
rep main protease: Replicase polyprotein 1ab, main protease (rep, Severe acute respiratory syndrome coronavirus 2, UniProt P0DTD1)
rep nsp14 N7-methyltransferase: Replicase polyprotein 1ab, nsp14 N7-methyltransferase (rep, Severe acute respiratory syndrome coronavirus 2, UniProt P0DTD1)

CC[C@H](NC(C)=O)C(=O)N[C@@H](CCCN)C(=O)N[C@@H](CC(C)C)C(=O)N[C@@H](CCC(N)=O)C(=O)Nc1ccc2c(C)cc(=O)oc2c1
apparent kcat (rep main protease; substrate; 5% DMSO; pH 7.2, 37 °C): 0.14 s⁻¹

CC[C@H](C)[C@H](NC(=O)[C@H](CC(C)C)NC(=O)[C@H](Cc1c[nH]c2ccccc12)NC(=O)[C@H](CCC(N)=O)NC(=O)[C@@H](NC(=O)[C@H](Cc1ccccc1)NC(=O)[C@H](C)NC(=O)[C@H](CCCCNC(=O)COCCOCCNC(=O)COCCOCCNC(=O)CC[C@H](NC(=O)CCCCCCCCCCCCCCCCCCC(=O)O)C(=O)O)NC(=O)[C@H](CCC(N)=O)NC(=O)[C@H](C)NC(=O)[C@@H](NC(=O)[C@H](CCCCN)NC(=O)[C@H](CC(=O)O)NC(=O)[C@H](CC(C)C)NC(=O)C(C)(C)NC(=O)[C@@H](NC(=O)[C@H](CO)NC(=O)[C@H](Cc1ccc(O)cc1)NC(=O)[C@H](CC(=O)O)NC(=O)[C@H](CO)NC(=O)[C@@H](NC(=O)[C@H](Cc1ccccc1)NC(=O)[C@@H](NC(=O)CNC(=O)[C@H](CCC(=O)O)NC(=O)C(C)(C)NC(=O)[C@@H](N)Cc1ccc(O)cc1)[C@@H](C)O)[C@@H](C)O)[C@@H](C)CC)[C@@H](C)CC)C(C)C)C(=O)N[C@@H](C)C(=O)NCC(=O)NCC(=O)N1CCC[C@H]1C(=O)N[C@@H](CO)C(=O)N[C@@H](CO)C(=O)NCC(=O)N[C@@H](C)C(=O)N1CCC[C@H]1C(=O)N1CCC[C@H]1C(=O)N1CCC[C@H]1C(=O)N[C@@H](CO)C(N)=O
serum ALT (healthy subjects, single ascending dose; 2.5 mg, baseline): 23 ± 19.1 U/L

Nc1ncnc2c([C@@H]3N[C@H](CO)[C@@H](O)[C@H]3O)c[nH]c12
infected cells (Marburg virus; viral replication, antibody staining; HeLa, Musoke; 12.5 µM, 1 h): 0.8%

O=C(N[C@@H]1CC[C@@H]2CCN(c3nc4[nH]ncc4c(=O)[nH]3)[C@H]1C2)c1ccc2c(c1)C(=O)NCC2
inhibition (rep main protease; enzyme activity, inhibitor; 5 µM, run 2): 11.2%

CC[C@H](NC(=O)OCc1ccccc1)C(=O)N[C@H](C(=O)N[C@@H](CC(C)C)C(=O)N(C)N(C#N)CCC(N)=O)C(C)(C)C
kinact/Ki (rep main protease; inhibitor, biochemical): 21400 M⁻¹ s⁻¹

Cn1cnc(Cn2c(=O)[nH]/c(=N\c3cc4cn(C)nc4cc3Cl)n(Cc3cc(F)c(F)cc3F)c2=O)n1
AUC(0-inf) (human, moderate renal impairment, plasma; oral, 375 mg single dose): 1480 µg·h/mL

COCCC(=O)N1CCC(Oc2ccccc2)C1 (centres unmarked)
fold enrichment (Replicase polyprotein 1ab, nsp13 helicase (rep, Severe acute respiratory syndrome coronavirus 2, UniProt P0DTD1); binding, affinity selection mass spectrometry; baseline: other proteins in batch): 0.796

NC(=O)[C@@H](CCC(F)(F)F)N(Cc1ccc(-c2ncon2)cc1F)S(=O)(=O)c1ccc(Cl)cc1
inhibition (rep main protease; reporter gene (mKate2), inhibitor; 20 µM): 0.115%

NC(=O)CI
Hill slope (rep nsp14 N7-methyltransferase; N7-methyltransferase activity, inhibitor, Py-FLINT): 2.14 ± 0.036

CCN(Cc1cn(C[C@H]2O[C@@H](n3cnc4c(N)ncnc43)[C@H](O)[C@@H]2O)nn1)S(=O)(=O)c1ccc(C(F)(F)F)cc1
remaining binding (rep nsp14 N7-methyltransferase; N7-methyltransferase activity, inhibitor, radioactive filter binding; 50 µM, 0.5 h, 30 °C, together with: GpppAC4 RNA, SAM): > 50%

Nc1c(S(=O)(=O)O)cc(Nc2ccc(Nc3nc(Cl)nc(Nc4cccc(S(=O)(=O)O)c4)n3)c(S(=O)(=O)O)c2)c2c1C(=O)c1ccccc1C2=O
Hill slope (rep nsp14 N7-methyltransferase; N7-methyltransferase activity, inhibitor, Py-FLINT): 0.62 ± 0.06

O=C(N[C@@H]1Cc2ccccc2[C@H]1NC(=O)c1cc(O)ccc1[N+](=O)[O-])c1ccc2[nH]nnc2n1
inhibition (rep main protease; enzyme activity, inhibitor; 5 µM, run 2): 6.3%

CC(C)[C@H](N)C(=O)N1CCC[C@H]1B(O)O.CS(=O)(=O)O
inhibition (rep main protease; reporter gene (mKate2), inhibitor; 20 µM): -0.347%

O=C(N[C@@H](CNC(=O)[C@H]1CCCc2[nH]cnc21)c1ccc2ccccc2c1)c1cccnn1
inhibition (rep main protease; enzyme activity, inhibitor; 5 µM, run 2): 11.6%

CC(C)(C)C(=O)Oc1ccc(S(=O)(=O)Nc2ccccc2C(=O)NCC(=O)O)cc1
inhibition (rep main protease; reporter gene (Gaussia luciferase), inhibitor; 20 µM): 0.354%

O=C1NC(=O)C2(CC(C(=O)NC[C@@H]3CC4(CCC4)CN3C(=O)c3ccn4ccnc4c3)C2)N1 (some centres unmarked)
inhibition (rep main protease; enzyme activity, inhibitor; 5 µM, run 1): 11.6%

CC(C)(C)NC(=O)[C@@H]1CN(Cc2cccnc2)CCN1C[C@@H](O)C[C@@H](Cc1ccccc1)C(=O)N[C@H]1c2ccccc2C[C@H]1O
inhibition (rep main protease; reporter gene (mKate2), inhibitor; 20 µM): -0.0941%

CC(=O)Nc1ccc(-c2cnc(/N=C\c3cc4ccccc4nc3Cl)s2)cc1
ΔTm (Replicase polyprotein 1ab, papain-like protease (rep, Severe acute respiratory syndrome coronavirus 2, UniProt P0DTD1); thermal stability, DSF): -7 °C

O=C(NC[C@H]1CC2(CCC2)CN1C(=O)Cc1ccccc1O)c1ccc2c(c1)CCNC2=O
inhibition (rep main protease; enzyme activity, inhibitor; 5 µM, mean of runs): 16.3%

CC[C@H](NC(=O)[C@H](CS(=O)(=O)CC1CC1)N[C@@H](c1ccc(F)cc1)C(F)(F)F)C(=O)C(=O)NC1CC1
inhibition (rep main protease; viral replication, mKate2 reporter; SARS-CoV-2; 20 µM): -0.177%
